Results of several laboratories.
Compare with care: the assays were run in different laboratories. ± marks the error that the study gave.

The retention time of CC(=O)N[C@H](CCCCN)C(=O)N[C@H](CC(C)C)C(=O)N[C@H](CCCCN)C(=O)N[C@H](CO)C(=O)N[C@H](CC(C)C)C(=O)N[C@H](CC(C)C)C(=O)N[C@H](CCCCN)C(=O)N[C@@H](C(=O)N[C@H](CC(C)C)C(=O)N[C@H](CO)C(=O)N[C@H](CCCCN)C(=O)N[C@H](C)C(=O)N[C@H](CCCCN)C(=O)N[C@H](CCCCN)C(=O)N[C@H](CCCCN)C(=O)N[C@H](CC(C)C)C(=O)N[C@H](CC(C)C)C(=O)N[C@H](CCCCN)C(=O)N[C@@H](C(=O)N[C@H](C)C(=O)N[C@H](CC(C)C)C(=O)N[C@H](CCCCN)C(=O)N[C@H](C)C(=O)N[C@H](CC(C)C)C(=O)N[C@H](CO)C(=O)N[C@H](CCCCN)C(N)=O)[C@H](C)O)[C@H](C)O is reported as 93 min (RP-HPLC C8; pH 2, hydrophobicity measure).
The retention time of C[C@@H]1NC(=O)[C@@H](Cc2ccc(O)cc2)NC(=O)[C@@H]2CSCC(=O)NCCCC[C@H](NC(=O)CSC[C@H](C(=O)N[C@@H](CCCCNC(=O)C[C@@H]3O[C@@H](C)[C@@H](O)[C@@H](O)[C@@H]3O)C(N)=O)NC1=O)C(=O)N1CCC[C@H]1C(=O)N[C@H](C)C(=O)N2 is reported as 2.39 min (RP-UHPLC C18; 7.5 min gradient).
CCCCCCCCCCCCCCCCCC(=O)N[C@@H](CCCNC(=N)N)C(=O)N[C@@H](CCCNC(=N)N)C(=O)N[C@@H](CCCNC(=N)N)C(=O)N[C@@H](CCCNC(=N)N)C(=O)N[C@@H](CCCNC(=N)N)C(N)=O has a retention time of 9.51 min (RP-HPLC C18).
For CC(C)C[C@@H]1NC(=O)[C@H](CCCCN)NC(=O)[C@H](C(C)C)NC(=O)[C@H](CCCCN)NC(=O)[C@H](CC(C)C)NC(=O)[C@@H]2CCCN2C(=O)[C@@H](Cc2ccc(O)cc2)NC(=O)[C@H](C(C)C)NC(=O)[C@H](CCCCN)NC(=O)[C@H](CCCCN)NC(=O)[C@H](C(C)C)NC(=O)[C@@H]2CCCN2C(=O)[C@@H](Cc2ccc(O)cc2)NC1=O, the retention time was 26.1 min (RP-HPLC C8; 70 °C, water/acetonitrile TFA gradient).
CC(C)C[C@@H]1NC(=O)[C@H](CC(C)C)NC(=O)[C@H](CC(C)C)NC(=O)[C@@H]2CSCC(=O)N[C@@H](CCCCN)C(=O)N[C@@H](CCCCN)C(=O)N[C@@H](CCCCN)C(=O)NCCCC[C@H](NC(=O)[C@H](CCCCN)NC(=O)[C@H](CCCCN)NC(=O)[C@H](CCCCN)NC(=O)CSC[C@@H](C(=O)N[C@@H](CCCCN)C(N)=O)NC1=O)C(=O)N[C@@H](CCCCN)C(=O)N[C@@H](CC(C)C)C(=O)N[C@@H](CC(C)C)C(=O)N2 has a retention time of 2.86 min (analytical RP-HPLC; C18 column; 10.00 min gradient, 0.05% TFA).
With CC(C)C[C@@H]1NC(=O)[C@H](CCCCN)NC(=O)[C@H](C(C)C)NC(=O)[C@@H]2CCCN2C(=O)[C@@H](Cc2ccc(O)cc2)NC(=O)[C@H](CC(C)C)NC(=O)[C@H](CCCCN)NC(=O)[C@H](C(C)C)NC(=O)[C@@H]2CCCN2C(=O)[C@@H](Cc2ccc(O)cc2)NC(=O)[C@H](CCCCN)NC1=O the retention time was 24.4 min (RP-HPLC C8; 70 °C, water/acetonitrile TFA gradient).
For CCCCCCCCCC(=O)N[C@@H](Cc1ccccc1)C(=O)N[C@@H](Cc1ccccc1)C(=O)N[C@@H](Cc1ccccc1)C(=O)N[C@@H](Cc1ccccc1)C(=O)N[C@@H](CCCCN)C(=O)N[C@@H](CCCCN)C(=O)N[C@@H](CCCCN)C(=O)N[C@@H](CCCCN)C(=O)N[C@@H](CCCCN)C(N)=O, the retention time was 16.3 min (RP-HPLC C18).
C[C@H](NC(=O)[C@H](Cc1c[nH]c2ccccc12)NC(=O)[C@@H](N)CCCNC(=N)N)C(=O)N[C@@H](Cc1c[nH]c2ccccc12)C(=O)N[C@@H](CCCNC(=N)N)C(=O)N[C@@H](Cc1c[nH]c2ccccc12)C(=O)N[C@@H](CCC(N)=O)C(=O)N[C@@H](Cc1c[nH]c2ccccc12)C(=O)N[C@@H](CCCNC(=N)N)C(N)=O has a retention time of 6.4 min (RP-HPLC C18; hydrophobicity measure).
The retention time of Cc1c(C)c(C)[c-](C)c1C.Fc1c[c-]c(-c2ccccn2)cc1.[Cl-].[Ir+3] is reported as 18.74 ± 0.05 min (RP-HPLC; C18 column, water/acetonitrile; added: 50 mM NaCl; longer = more hydrophobic).
CCCCCCCCCCCCCCCC(=O)N[C@H](C(=O)N[C@H](C(=O)N[C@H](C(=O)N[C@@H](C)C(=O)N[C@@H](C)C(=O)N[C@@H](C)C(=O)N[C@@H](CCCCN)C(=O)N[C@@H](CCCCN)C(=O)N[C@@H](CCCCN)C(N)=O)C(C)C)C(C)C)C(C)C gave a retention time of 19.1 min (RP-HPLC C18).
For CC(C)C[C@@H]1NC(=O)[C@H](CCCCN)NC(=O)[C@H](C(C)C)NC(=O)[C@@H]2CCCN2C(=O)[C@@H](Cc2ccc(O)cc2)NC(=O)[C@H](CC(C)C)NC(=O)[C@H](CCCCN)NC(=O)[C@H](C(C)C)NC(=O)[C@H](CCCCN)NC(=O)[C@H](CC(C)C)NC(=O)[C@@H]2CCCN2C(=O)[C@@H](Cc2ccc(O)cc2)NC(=O)[C@H](C(C)C)NC(=O)[C@H](CCCCN)NC1=O, the retention time was 30.9 min (RP-HPLC C8; 70 °C, water/acetonitrile TFA gradient).
The retention time of CC[C@@H](C)[C@@H](NC(=O)[C@@H](C)NC(=O)[C@@H](CCCCN)NC(=O)[C@@H](CC(C)C)NC(=O)[C@@H](CC(C)C)NC(=O)[C@H](NC(=O)[C@@H](CCCCN)NC(=O)[C@@H](CC(C)C)NC(=O)[C@@H](CCCCN)NC(=O)[C@@H](CCCCN)NC(=O)[C@@H](CCCCN)NC(=O)[C@@H](CCCCN)NC(=O)[C@@H](C)NC(=O)[C@@H](CCCCN)NC(=O)[C@@H](CO)NC(=O)[C@@H](Cc1ccccc1)NC(=O)[C@H](NC(=O)[C@@H](CCCCN)NC(=O)[C@@H](CC(C)C)NC(=O)[C@@H](Cc1ccccc1)NC(=O)[C@@H](CO)NC(=O)[C@@H](CCCCN)NC(=O)[C@@H](Cc1c[nH]c2ccccc12)NC(=O)[C@@H](CCCCN)NC(C)=O)[C@H](C)O)[C@H](C)O)C(=O)N[C@H](CO)C(=O)N[C@H](CCCCN)C(N)=O is reported as 81.8 min (RP-HPLC C8; pH 2, hydrophobicity measure).
CCCCCCCCCCCCCCCCCC(=O)N[C@H](C(=O)N[C@H](C(=O)N[C@H](C(=O)N[C@@H](CCCCN)C(=O)N[C@@H](CCCCN)C(=O)N[C@@H](CCCCN)C(=O)N[C@@H](CCCCN)C(=O)N[C@@H](CCCCN)C(N)=O)C(C)C)C(C)C)C(C)C gave a retention time of 18.6 min (RP-HPLC C18).
Cc1c(C)c(C)[c-](C)c1C.O=[N+]([O-])c1c[c-]c(-c2ccccn2)cc1.[Cl-].[Ir+3] has a retention time of 18.8 ± 0.2 min (RP-HPLC; C18 column, water/acetonitrile; added: 50 mM NaCl; longer = more hydrophobic).
For N=C(N)NCCC[C@H](NC(=O)[C@H](Cc1c[nH]c2ccccc12)NC(=O)[C@H](CCC(N)=O)NC(=O)[C@H](Cc1c[nH]c2ccccc12)NC(=O)[C@H](CCCN)NC(=O)[C@H](Cc1c[nH]c2ccccc12)NC(=O)[C@H](CCC(N)=O)NC(=O)[C@H](Cc1c[nH]c2ccccc12)NC(=O)[C@@H](N)CCCNC(=N)N)C(N)=O, the retention time was 6.4 min (RP-HPLC, C18 column; water/acetonitrile gradient with TFA).
The retention time of CC(C)C[C@@H]1NC(=O)[C@H](CCCCN)NC(=O)[C@H](C(C)C)NC(=O)[C@@H]2CCCN2C(=O)[C@@H](Cc2ccc(O)cc2)NC(=O)[C@H](CC(C)C)NC(=O)[C@H](CCCCN)NC(=O)[C@H](C(C)C)NC(=O)[C@H](CCCCN)NC(=O)[C@@H]2CCCN2C(=O)[C@@H](Cc2ccc(O)cc2)NC1=O is reported as 25.7 min (RP-HPLC C8; 70 °C, water/acetonitrile TFA gradient).
CC[C@H](C)[C@H](NC(=O)[C@H](CCCNC(=N)N)NC(=O)[C@H](CCCCN)NC(=O)[C@H](Cc1ccc(O)cc1)NC(=O)[C@H](CC(=O)O)NC(=O)[C@H](C)NC(=O)CNC(=O)CCOCCOCCOCCNC(=O)CN1CCN(CC(=O)O)CCN(CC(=O)O)CCN(CC(=O)O)CC1)C(=O)N[C@H](C(=O)N[C@@H](CC(C)C)C(=O)N[C@@H](CCCCN)C(=O)N[C@H](C(=O)N[C@@H](CC(N)=O)C(N)=O)C(C)C)[C@@H](C)O [copper-64 labelled] has a retention time of 7.83 min (radio-RP-HPLC; MeCN/water TFA gradient; longer means more hydrophobic).

A few entries again:
For N=C(N)NCCC[C@H](NC(=O)[C@H](Cc1c[nH]c2ccccc12)NC(=O)[C@H](CCC(N)=O)NC(=O)[C@H](Cc1c[nH]c2ccccc12)NC(=O)[C@H](CCCN)NC(=O)[C@H](Cc1c[nH]c2ccccc12)NC(=O)[C@H](CCC(N)=O)NC(=O)[C@H](Cc1c[nH]c2ccccc12)NC(=O)[C@@H](N)CCCNC(=N)N)C(N)=O, the retention time was 6.4 min (RP-HPLC, C18 column; water/acetonitrile gradient with TFA).
The retention time of CC(C)C[C@@H]1NC(=O)[C@H](CCCCN)NC(=O)[C@H](C(C)C)NC(=O)[C@@H]2CCCN2C(=O)[C@@H](Cc2ccc(O)cc2)NC(=O)[C@H](CC(C)C)NC(=O)[C@H](CCCCN)NC(=O)[C@H](C(C)C)NC(=O)[C@H](CCCCN)NC(=O)[C@@H]2CCCN2C(=O)[C@@H](Cc2ccc(O)cc2)NC1=O is reported as 25.7 min (RP-HPLC C8; 70 °C, water/acetonitrile TFA gradient).
